Measurements of several laboratories.
Numbers after ± are the reported error.

CCNCc1cc(Nc2ccnc3cc(Cl)ccc23)ccc1O — Tmax (human, both sexes, plasma; oral, dose not given, non-fixed combination): 1.65 h
CC(C)[C@H](N)C(=O)NCCCS(=O)(=O)O — Tmax (median; human, plasma; oral, 256.5 mg once daily days 8-14, day 14, fasted, capsule): 0.5 h
O=C(NCCN1CCCC1)c1cc(-c2ccc(CN3CCOCC3)cc2)nc2ccc(F)cc12 — Tmax (human, whole blood; oral, 2100 mg): 1.5 h
COC(=O)N[C@@H](C)CNc1nccc(-c2cn(C(C)C)nc2-c2cc(Cl)cc(NS(C)(=O)=O)c2F)n1 — Tmax (human, plasma; oral, 50 mg, with: posaconazole 400 mg twice daily; median): 1.49 h
CO[C@H]1C[C@@H]2CC[C@@H](C)[C@@](O)(O2)C(=O)C(=O)N2CCCC[C@H]2C(=O)O[C@H]([C@H](C)C[C@@H]2CC[C@@H](OC(=O)NCCOCCOCCOCCOCCOCCOCCOCCOCCC(=O)N3CCc4cc(Cn5nc(-c6ccc7oc(N)nc7c6)c6c(N)ncnc65)ccc4C3)[C@H](OC)C2)C[C@@H](O)[C@H](C)/C=C(\C)[C@@H](O)[C@@H](OC)C(=O)[C@H](C)C[C@H](C)/C=C/C=C/C=C/1C — Tmax (human patients, plasma; intravenous, 10 mg, cycle 1 day 15, 2 h infusion): 1 h
COc1cc(C(=O)NC2CCN(C)CC2)c(F)cc1Nc1ncc(C(F)(F)F)c(Oc2cccc3c2C(=O)N(C)C3)n1 — Tmax (human patients, plasma; oral, 300 mg single dose, median): 2.02 h
CC(=O)N(C)[C@H]1CCN(C(=O)c2cnc3c(c2)C[C@](C)(c2ccc(F)cc2)N3)C1 — Tmax (human, male, plasma; oral, dose not given, median): ~1 h
O=C(c1cc(Cc2n[nH]c(=O)c3ccccc23)ccc1F)N1CCN(C(=O)C2CC2)CC1 — Tmax (human, female, plasma; oral, 200 mg): 2 h
CC(=O)N1CCC(Nc2cc(C(=O)NC[C@H](O)CN3CCc4ccccc4C3)ncn2)CC1 — Tmax (human, plasma; oral, 300 mg, week 3 day 1, median): 2.95 h
COc1cc([C@H]2Oc3cc([C@H]4Oc5cc(O)cc(O)c5C(=O)[C@@H]4O)ccc3O[C@@H]2CO)ccc1O — Tmax (OATP1B1/1B3 humanized mice, plasma; oral gavage, 500 mg/kg silymarin, median): 0.25 h
CCCCCCCOc1ccc(CCC(N)(CO)CO)cc1C(F)(F)F.Cl — Tmax (healthy human males, plasma; 0.125 mg, day 21, median): 10 h
N#Cc1cc(NC(=O)[C@H]2c3ccccc3C(=O)N(CC(F)(F)F)[C@@H]2c2cccnc2)ccc1F — Tmax (human, plasma; oral, 600 mg, median): 1.5 h
C#C[C@]1(COP(=O)(O)OP(=O)(O)O)O[C@@H](n2cnc3c(N)nc(F)nc32)C[C@@H]1O — Tmax (measured: islatravir triphosphate; human, PBMC; oral, 200 mg single dose): 18 h
CC(C)c1nc(N(C)S(C)(=O)=O)nc(-c2ccc(F)cc2)c1/C=C/[C@@H](O)C[C@@H](O)CC(=O)O — Tmax (human, plasma; oral, 20 mg, day 2, median, alone): 5 h
CC1=C(c2cccc(O)c2)[C@H](c2ccc(OCCN3CC(CF)C3)cc2)Oc2ccc(O)cc21 — Tmax (human; 600 mg once daily, cycle 2 day 1, steady state, median): 1.5 h
CC(=O)O.NC(=O)c1cnc(N[C@@H]2CCCC[C@@H]2N)nc1Nc1cccc(-n2nccn2)c1 — Tmax (human, plasma; oral, 66 mg once daily): 2.53 h
CC(C)NC(=O)COc1cccc(-c2nc(Nc3ccc4[nH]ncc4c3)c3ccccc3n2)c1 — Tmax (human, male, fed, plasma; oral, 200 mg once daily, day 8, median, with: raltegravir): 2 h
NC(=O)N1c2ccccc2C=Cc2ccccc21 — Tmax (healthy human subjects, plasma; oral, day 20, twice daily, alone, median): 4 h
Cc1noc(C)c1-c1cc(C(O)(c2ccccn2)c2ccccn2)c2nc(C3CC3)[nH]c2c1 — Tmax (human patients, plasma; oral, 2 mg, cycle 1 day 8, monotherapy): 0.5 h
CCNCCCNC/C=C\CNCCCNCC — Tmax (LC-MS/MS; human cancer patients, plasma; intravenous infusion 60 min, 100 mg, median, cycle 1): 0.75 h
CN(C)C(=O)c1cc2cnc(Nc3ccc(N4CCNCC4)cn3)nc2n1C1CCCC1 — Tmax (human, moderate renal impairment, plasma; oral, 400 mg, median): 2.48 h
C[C@H](Oc1ccc(Br)cc1-c1ccon1)C(=O)O — Tmax (healthy male humans, plasma; oral, 400 mg twice daily, day 1, median): 8 h
CC(F)(F)c1cc(F)ccc1-c1sc2cc(O)ccc2c1Oc1ccc(/C=C/C(=O)O)cc1 — Tmax (human patients, serum; oral, 400 mg once daily, cycle 1 day 28, fasted, median): 2 h
Cc1cc(-c2nnc(N)nc2-c2ccc(F)cc2)cc(Cl)n1 — Tmax (human patients, plasma; oral, 75 mg capsule, single dose, median): 1.5 h
CC1(COc2ccc3c(c2)ncn3-c2ccc3cccc(N4CCC(N)CC4)c3n2)COC1 — Tmax (human patients, recurrent/progressive HGG or DIPG, serum; oral, 170 mg/m^2, day 1, median): 4 h
Cn1nnc2c(C(N)=O)ncn2c1=O — Tmax (human patients, plasma; oral, 30 mg/m2, day 5, dose level DL4, median, with: talazoparib 600 µg/m2): 1 h
Cc1cc(C)c(CNC(=O)c2cc(Cl)c3c(c2C)O[C@@](C)([C@H]2CC[C@H](N(C)C)CC2)O3)c(=O)[nH]1 — Tmax (measured: total radioactivity; human, male, plasma; oral, 200 mg, [14C]-labelled, median): 2.5 h
O=c1ccn([C@@H]2O[C@H](CO)[C@@H](O)C2(F)F)c(=O)[nH]1 — Tmax (human, plasma; intravenous, dose not given, cycle 1, median): 0.5 to 1 h
N#CCNC(=O)c1ccc(-c2ccnc(Nc3ccc(N4CCOCC4=O)cc3)n2)cc1 — Tmax (healthy human volunteers, plasma; 100 mg momelotinib once daily, day 7, fed, momelotinib alone): 2.5 h
C=CC(=O)NC1CCN(c2ncc3ncnc(Nc4ccc(Oc5ccc6c(c5)ncn6C)c(C)c4)c3n2)CC1 — Tmax (human, male, plasma; oral, 240 mg single dose, fed, median): 4 h
Cc1nc(-c2ccc(OCC(C)C)c(C#N)c2)sc1C(=O)O — Tmax (human, plasma; oral, 20 mg once daily, with: verinurad 5 mg): 2.5 h
Cn1cncc1[C@@](N)(c1ccc(Cl)cc1)c1ccc2c(c1)c(-c1cccc(Cl)c1)cc(=O)n2C — Tmax (human, plasma; oral, 200 mg/m^2, median, first cycle dose): 3 h
C[C@@H](Nc1cc(F)cc(F)c1)c1cc(C(=O)N(C)C)cc2c(=O)cc(N3CCOCC3)oc12 — Tmax (human; oral, 180 mg twice daily, day 1, 5:2 schedule, single dose, range): 1 to 26.2 h
Cc1ncnc2c1ccn2[C@@H]1C[C@H](Oc2cc(C(F)F)c(F)c3c2CNCC3)[C@@H](O)[C@H]1O — Tmax (human, plasma; 6 mg once daily, multiple dose, median): 1 h
O=C(O)c1cc(/N=N/c2ccc(S(=O)(=O)Nc3ccccn3)cc2)ccc1O — Tmax (LC-MS; human, plasma; oral, 1000 mg, day 1): 4 h
C[C@@H](N)c1cc(Cl)ccc1Cn1c(=S)[nH]c(=O)c2[nH]ccc21 — Tmax (human, both sexes, matched healthy controls, plasma; oral, 2.5 mg single dose, median): 1.75 h
N#CCC1CCN(c2nc(Nc3ccc(N4CCC(O)CC4)cc3)c3c(=O)[nH]ncc3n2)CC1 — Tmax (LC-MS/MS; human, plasma; oral, 20 mg once daily, day 1, median): 2 h
COc1ncc(-c2nc3c(n2C(C)C)[C@H](c2ccc(Cl)cc2)N(c2cc(Cl)cn(C)c2=O)C3=O)c(OC)n1 — Tmax (LC-MS/MS, noncompartmental; human, plasma; oral, 150 mg, C2D1, high-dose, median): 3 h
CCCS(=O)(=O)N[C@H]1C[C@@H](N(C)c2ncnc3[nH]ccc23)C1 — Tmax (human, plasma; oral, 200 mg once daily, 4 days, steady state): 1.5 h
COc1nnc2ccc(N3CCC(c4ccc(OCCN5CCN(C)C(=O)[C@H]5C)cc4)CC3)nn12 — Tmax (human, plasma; oral, 40 mg once daily, multiple dose, monotherapy): 1.05 h
Cc1cc(Nc2cc3ncccc3c(N[C@@H]3C[C@H]4CC[C@@H](C3)N4CCC#N)n2)n[nH]1 — Tmax (human, plasma; 100 mg single dose, median): 1 h
Cc1cn([C@H]2C[C@H](N=[N+]=[N-])[C@@H](CO)O2)c(=O)[nH]c1=O — Tmax (human, both sexes, PBMCs; oral, 600 mg, single dose): 1.08 ± 0.289 h
Cc1cc(-c2nccc3c2ccn3CC(=O)Nc2ccc(-c3cnccn3)cn2)ccn1 — Tmax (human, plasma; oral, 5 mg once daily, day 1, median): 1.25 h
COc1cc(N2CCC(N3CCN(C)CC3)CC2)ccc1Nc1ncnc(Nc2ccccc2S(=O)(=O)C(C)C)n1 — Tmax (human, dose expansion arm, plasma; oral, 200 mg, day 28, mean): 3.49 h
C[C@H](NC(=O)/C(C#N)=C/c1cccc(Br)n1)c1ccccc1 — Tmax (LC-MS/MS; human, plasma; oral, 4 mg/kg, cycle 1 day 8): 0.5 h
NCCCS(=O)(=O)O — Tmax (human, plasma; oral, 265 mg twice daily, then once daily, day 7, tablet, fed, twice daily days 2-6, once daily day 7): 3 h
Cn1c(=O)oc2ccc(-c3ccc(C[C@@H](C#N)NC(=O)[C@@H]4CNCCCO4)cc3)cc21 — Tmax (human, normal renal function, plasma; oral, 25 mg single dose, median): 1 h
C#C[C@]1(COP(=O)(O)O)O[C@@H](n2cnc3c(N)nc(F)nc32)C[C@@H]1O — Tmax (measured: islatravir triphosphate; human, PBMC; oral, 200 mg single dose): 6 h
CCN1CCN(Cc2ccc(Nc3ncc(F)c(-c4cc(F)c5nc6n(c5c4)[C@H](C)CCC6)n3)nc2)CC1 — Tmax (human, plasma; 300 mg multiple dosing, median): 1.98 h
Cn1ncnc1[C@H]1c2n[nH]c(=O)c3cc(F)cc(c23)N[C@@H]1c1ccc(F)cc1 — Tmax (human patients, plasma; oral, 600 µg/m2 twice daily day 1, day 5, dose level DL3, median, with: temozolomide 20 mg/m2 daily days 2-6): 1 h
Cc1cn(C(=O)c2c(-c3c(Cl)cc(Cl)cc3Cl)noc2C(C)(C)F)c2cccc(/C=C/C(=O)O)c12 — Tmax (human patients; 250 mg bid, cycle 1 day 1): 3.95 h
CN(CC#N)C(=O)C[C@H](Nc1nc2ccccc2[nH]1)c1cccc(C(F)(F)F)c1 — Tmax (human; intravenous infusion, 2 mg/kg, 10 mg/mL formulation): 0.51 ± 0.04 h
O=C(NC[C@H](O)CO)c1ccncc1Nc1ccc(I)cc1F — Tmax (human): 1 to 2.3 h
CN(C)C(=O)c1cc2cnc(Nc3ccc(N4CCNCC4)cn3)nc2n1C1CCCC1 — Tmax (LC-MS/MS; human, all patients, plasma; oral): 4 h
N[C@](CO)(CCc1ccc(Sc2cccc(OCc3ccccc3)c2)cc1Cl)COP(=O)(O)O — Tmax (human, fed, blood; 3 mg, median, with: itraconazole 200 mg once daily): 24 h

For quick reference, copied from above:
C=CC(=O)NC1CCN(c2ncc3ncnc(Nc4ccc(Oc5ccc6c(c5)ncn6C)c(C)c4)c3n2)CC1 — Tmax (human, male, plasma; oral, 240 mg single dose, fed, median): 4 h
Cc1nc(-c2ccc(OCC(C)C)c(C#N)c2)sc1C(=O)O — Tmax (human, plasma; oral, 20 mg once daily, with: verinurad 5 mg): 2.5 h
Cn1cncc1[C@@](N)(c1ccc(Cl)cc1)c1ccc2c(c1)c(-c1cccc(Cl)c1)cc(=O)n2C — Tmax (human, plasma; oral, 200 mg/m^2, median, first cycle dose): 3 h
C[C@@H](Nc1cc(F)cc(F)c1)c1cc(C(=O)N(C)C)cc2c(=O)cc(N3CCOCC3)oc12 — Tmax (human; oral, 180 mg twice daily, day 1, 5:2 schedule, single dose, range): 1 to 26.2 h
Cc1ncnc2c1ccn2[C@@H]1C[C@H](Oc2cc(C(F)F)c(F)c3c2CNCC3)[C@@H](O)[C@H]1O — Tmax (human, plasma; 6 mg once daily, multiple dose, median): 1 h
O=C(O)c1cc(/N=N/c2ccc(S(=O)(=O)Nc3ccccn3)cc2)ccc1O — Tmax (LC-MS; human, plasma; oral, 1000 mg, day 1): 4 h
C[C@@H](N)c1cc(Cl)ccc1Cn1c(=S)[nH]c(=O)c2[nH]ccc21 — Tmax (human, both sexes, matched healthy controls, plasma; oral, 2.5 mg single dose, median): 1.75 h
